Measured values gathered from unrelated publications.
Each line is one published result; not all experiments were run side by side. ± gives the spread as reported.
Sample: plasma

The Cmax of `[2H]C([2H])([2H])NC(=O)c1ccc(N2C(=S)N(c3ccc(C#N)c(C(F)(F)F)c3)C(=O)C2(C)C)cc1F` is reported as 3100 ng/mL (male human; oral, 80 mg, single dose, fasted).
With `Cc1ccc(OCC(=O)O)cc1` the Cmax was 3470 ± 1120 ng/mL (Sprague-Dawley rat, female; oral gavage, 10 mg/kg of parent drug).
`O=C(CCc1ccc(CNC(C(=O)OC2CCCC2)C2CCCCC2)cn1)NO` (stereo not drawn) gave a Cmax of 210 ng/mL (human; oral, 40 mg, single dose, patients).
`CN1CCC[C@]1(C)/C=C/S(=O)(=O)NC(=O)Nc1c2c(cc3c1CCC3)CCC2` has a Cmax of 5700 ng/mL (human; oral, 50 mg, single dose, healthy volunteers).
`CC(=O)N[C@H](CSSC[C@H](N)C(=O)O)C(=O)N[C@H](C)C(=O)N[C@H](CCCNC(=N)N)C(=O)N[C@H](CCCNC(=N)N)C(=O)N[C@H](CCCNC(=N)N)C(=O)N[C@H](C)C(=O)N[C@H](CCCNC(=N)N)C(N)=O` has a Cmax of 168 ng/mL (male human; intravenous, 2 mg, single dose, healthy volunteers).
For `CC(C)[C@H](NC(=O)CNC(=O)[C@H](CCC(N)=O)NC(=O)[C@H](C)N)C(=O)O`, the Cmax was 2240 ng/mL (LC-MS/MS; human, male; intravenous, 10 mg/kg three times daily, day 2, first dose, 10 min infusion, geometric mean).
For `CC12CC(c3ccc(S(C)(=O)=O)cc3)C3=C4CCC(=O)C=C4CCC3C1CCC2(O)C(F)(F)C(F)(F)F` (stereo not drawn), the Cmax was 16.6 ng/mL (human; oral, 4 mg, single dose, fasted, healthy volunteers).
The Cmax of `CC(C)(O)c1ncc([S@](N)(=O)=NC(=O)Nc2c3c(cc4c2CCC4)CCC3)s1` is reported as 451 ng/mL (human; oral, 3 mg, single dose, fasted, healthy volunteers).
For `CC(=O)N[C@H](CC(=O)O)C(=O)N[C@H](Cc1c[nH]c2ccccc12)C(=O)N[C@H](Cc1ccccc1)C(=O)N[C@H](CCCCN)C(=O)N[C@H](C)C(=O)N[C@H](Cc1ccccc1)C(=O)N[C@H](Cc1ccc(O)cc1)C(=O)N[C@H](CC(=O)O)C(=O)N[C@H](CCCCN)C(=O)N[C@@H](C(=O)N[C@H](C)C(=O)N[C@H](CCC(=O)O)C(=O)N[C@H](CCCCN)C(=O)N[C@H](Cc1ccccc1)C(=O)N[C@H](CCCCN)C(=O)N[C@H](CCC(=O)O)C(=O)N[C@H](C)C(=O)N[C@H](Cc1ccccc1)C(N)=O)C(C)C`, the Cmax was 10.8 ng/mL (statin-treated high-risk CHD women; oral, 300 mg daily, day 13, 0 to 8 h, mean, undetectable set to 0).

Repeated from above:
`O=C(CCc1ccc(CNC(C(=O)OC2CCCC2)C2CCCCC2)cn1)NO` (stereo not drawn) gave a Cmax of 210 ng/mL (human; oral, 40 mg, single dose, patients).
For `CC(C)[C@H](NC(=O)CNC(=O)[C@H](CCC(N)=O)NC(=O)[C@H](C)N)C(=O)O`, the Cmax was 2240 ng/mL (LC-MS/MS; human, male; intravenous, 10 mg/kg three times daily, day 2, first dose, 10 min infusion, geometric mean).
